Measurements of several laboratories.
A part holds a random share of what one study measured.
Sequence of UniProt P54764 (whole entry, looked up): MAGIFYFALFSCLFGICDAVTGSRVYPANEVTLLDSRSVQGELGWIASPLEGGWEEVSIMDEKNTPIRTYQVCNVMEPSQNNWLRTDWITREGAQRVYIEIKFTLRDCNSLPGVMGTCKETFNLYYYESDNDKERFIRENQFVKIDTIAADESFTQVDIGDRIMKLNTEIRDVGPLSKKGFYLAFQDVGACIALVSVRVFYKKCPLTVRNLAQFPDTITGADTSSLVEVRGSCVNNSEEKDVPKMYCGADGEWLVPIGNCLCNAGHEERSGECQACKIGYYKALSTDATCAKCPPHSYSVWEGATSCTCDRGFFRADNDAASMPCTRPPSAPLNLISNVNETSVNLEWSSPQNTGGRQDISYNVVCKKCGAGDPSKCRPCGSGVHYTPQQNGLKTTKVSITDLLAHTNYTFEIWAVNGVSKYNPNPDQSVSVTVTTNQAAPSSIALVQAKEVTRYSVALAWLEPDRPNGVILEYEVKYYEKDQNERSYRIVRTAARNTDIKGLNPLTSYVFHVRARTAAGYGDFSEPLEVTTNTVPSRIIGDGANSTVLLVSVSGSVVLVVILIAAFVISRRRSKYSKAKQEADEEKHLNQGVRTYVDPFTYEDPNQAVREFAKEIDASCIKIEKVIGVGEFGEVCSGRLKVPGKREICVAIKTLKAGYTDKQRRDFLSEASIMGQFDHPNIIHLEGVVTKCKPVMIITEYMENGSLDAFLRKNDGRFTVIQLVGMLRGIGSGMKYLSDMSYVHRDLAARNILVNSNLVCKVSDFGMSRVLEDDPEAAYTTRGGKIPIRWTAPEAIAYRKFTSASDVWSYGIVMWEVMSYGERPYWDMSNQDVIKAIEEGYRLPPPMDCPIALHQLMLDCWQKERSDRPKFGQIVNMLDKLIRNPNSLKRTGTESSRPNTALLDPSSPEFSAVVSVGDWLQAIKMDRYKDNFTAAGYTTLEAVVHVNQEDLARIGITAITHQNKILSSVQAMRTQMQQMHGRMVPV
Sequence of UniProt P54760 (whole entry, looked up): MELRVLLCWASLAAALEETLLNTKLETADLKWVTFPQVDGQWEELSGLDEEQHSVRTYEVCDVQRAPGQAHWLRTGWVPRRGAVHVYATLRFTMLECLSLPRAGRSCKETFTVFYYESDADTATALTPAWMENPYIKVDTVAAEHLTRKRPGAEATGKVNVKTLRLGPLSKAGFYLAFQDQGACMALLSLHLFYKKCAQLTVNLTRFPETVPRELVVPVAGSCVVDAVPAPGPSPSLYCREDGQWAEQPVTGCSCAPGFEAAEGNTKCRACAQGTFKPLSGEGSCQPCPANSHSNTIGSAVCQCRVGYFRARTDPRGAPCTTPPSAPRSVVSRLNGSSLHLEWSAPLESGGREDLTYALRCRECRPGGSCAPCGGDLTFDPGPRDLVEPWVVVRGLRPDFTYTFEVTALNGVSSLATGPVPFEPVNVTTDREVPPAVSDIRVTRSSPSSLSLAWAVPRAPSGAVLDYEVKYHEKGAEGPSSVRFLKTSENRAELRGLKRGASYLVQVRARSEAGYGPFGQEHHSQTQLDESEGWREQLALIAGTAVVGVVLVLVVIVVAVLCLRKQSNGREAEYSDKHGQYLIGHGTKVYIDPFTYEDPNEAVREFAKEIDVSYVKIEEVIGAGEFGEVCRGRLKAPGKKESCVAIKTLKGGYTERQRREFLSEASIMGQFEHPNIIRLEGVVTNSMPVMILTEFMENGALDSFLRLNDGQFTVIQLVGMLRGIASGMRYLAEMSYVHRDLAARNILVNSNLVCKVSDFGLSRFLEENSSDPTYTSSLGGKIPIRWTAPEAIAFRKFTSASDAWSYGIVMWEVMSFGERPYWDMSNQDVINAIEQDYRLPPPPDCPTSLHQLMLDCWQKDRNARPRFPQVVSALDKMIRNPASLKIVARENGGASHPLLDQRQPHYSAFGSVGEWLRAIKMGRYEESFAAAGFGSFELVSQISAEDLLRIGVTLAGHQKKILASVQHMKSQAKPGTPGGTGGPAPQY
Sequence of UniProt O15530 (whole entry, looked up): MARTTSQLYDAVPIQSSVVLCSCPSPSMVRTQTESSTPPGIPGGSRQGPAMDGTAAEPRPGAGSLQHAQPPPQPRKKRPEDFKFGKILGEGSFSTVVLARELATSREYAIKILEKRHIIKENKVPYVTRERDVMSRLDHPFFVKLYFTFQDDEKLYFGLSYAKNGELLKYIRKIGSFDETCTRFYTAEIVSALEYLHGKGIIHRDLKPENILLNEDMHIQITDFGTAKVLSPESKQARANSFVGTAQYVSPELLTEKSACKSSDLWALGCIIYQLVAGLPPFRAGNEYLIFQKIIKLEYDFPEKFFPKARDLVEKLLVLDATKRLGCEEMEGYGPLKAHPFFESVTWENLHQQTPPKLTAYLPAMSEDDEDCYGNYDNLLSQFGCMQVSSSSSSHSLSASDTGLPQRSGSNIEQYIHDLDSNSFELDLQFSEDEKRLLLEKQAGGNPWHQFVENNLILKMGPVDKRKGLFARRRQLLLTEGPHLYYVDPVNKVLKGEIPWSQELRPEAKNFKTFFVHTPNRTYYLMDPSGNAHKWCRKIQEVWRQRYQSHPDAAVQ
Sequence of UniProt P45984 (whole entry, looked up): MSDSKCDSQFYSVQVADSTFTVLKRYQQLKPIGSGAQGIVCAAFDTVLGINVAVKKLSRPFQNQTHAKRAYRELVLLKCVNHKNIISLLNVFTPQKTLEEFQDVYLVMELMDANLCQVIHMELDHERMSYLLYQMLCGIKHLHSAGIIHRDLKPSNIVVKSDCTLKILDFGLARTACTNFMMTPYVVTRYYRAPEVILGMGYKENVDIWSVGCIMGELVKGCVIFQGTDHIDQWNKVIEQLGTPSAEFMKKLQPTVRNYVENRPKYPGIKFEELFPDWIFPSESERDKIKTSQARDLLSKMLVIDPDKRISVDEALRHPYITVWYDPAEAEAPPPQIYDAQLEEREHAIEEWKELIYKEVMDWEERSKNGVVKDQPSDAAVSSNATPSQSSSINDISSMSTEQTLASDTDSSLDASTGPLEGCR
Sequence of UniProt Q7KZI7 (whole entry, looked up): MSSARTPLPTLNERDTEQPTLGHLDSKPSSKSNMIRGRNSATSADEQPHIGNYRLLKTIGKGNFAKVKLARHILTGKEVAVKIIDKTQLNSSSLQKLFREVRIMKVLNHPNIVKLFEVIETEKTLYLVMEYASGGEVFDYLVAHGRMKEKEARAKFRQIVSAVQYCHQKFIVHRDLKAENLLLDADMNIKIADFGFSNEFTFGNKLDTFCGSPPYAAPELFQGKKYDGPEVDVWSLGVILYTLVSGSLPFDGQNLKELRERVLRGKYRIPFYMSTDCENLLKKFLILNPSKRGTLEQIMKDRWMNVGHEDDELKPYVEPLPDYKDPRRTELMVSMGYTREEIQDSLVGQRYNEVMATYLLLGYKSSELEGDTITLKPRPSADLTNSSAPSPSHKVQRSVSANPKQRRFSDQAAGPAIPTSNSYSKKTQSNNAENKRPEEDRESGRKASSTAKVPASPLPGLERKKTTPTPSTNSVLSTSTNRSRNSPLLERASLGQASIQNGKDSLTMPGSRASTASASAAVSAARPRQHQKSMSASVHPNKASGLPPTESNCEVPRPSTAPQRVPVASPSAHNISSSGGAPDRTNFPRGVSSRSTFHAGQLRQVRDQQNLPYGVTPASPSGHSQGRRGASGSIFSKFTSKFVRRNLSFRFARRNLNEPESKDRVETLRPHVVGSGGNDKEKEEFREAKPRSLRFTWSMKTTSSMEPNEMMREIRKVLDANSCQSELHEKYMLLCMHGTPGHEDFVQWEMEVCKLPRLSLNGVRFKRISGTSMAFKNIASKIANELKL

Set 1 — effect on: enzyme activity; action: inhibitor; tested at: 10 µM
Target: Calcium/calmodulin-dependent protein kinase type II subunit alpha (CAMK2A, Homo sapiens, UniProt Q9UQM7)
Sequence of UniProt Q9UQM7 (whole entry, looked up): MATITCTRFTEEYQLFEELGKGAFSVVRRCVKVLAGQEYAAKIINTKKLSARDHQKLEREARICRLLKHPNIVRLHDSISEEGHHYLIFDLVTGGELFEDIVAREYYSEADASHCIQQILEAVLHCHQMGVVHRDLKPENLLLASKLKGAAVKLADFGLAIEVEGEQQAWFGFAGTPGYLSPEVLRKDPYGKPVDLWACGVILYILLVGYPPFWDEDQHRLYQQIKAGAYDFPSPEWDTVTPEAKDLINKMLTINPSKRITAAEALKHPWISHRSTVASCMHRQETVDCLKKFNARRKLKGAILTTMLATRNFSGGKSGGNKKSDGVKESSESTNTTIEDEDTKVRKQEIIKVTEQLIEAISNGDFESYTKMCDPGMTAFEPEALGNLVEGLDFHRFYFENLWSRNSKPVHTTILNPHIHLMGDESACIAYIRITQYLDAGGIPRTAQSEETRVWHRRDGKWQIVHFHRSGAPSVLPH
SMILES	inhibition
NC(=O)C(c1ccccc1)(c1ccccc1)[C@@H]1CCN(CCc2ccc3c(c2)CCO3)C1	15%
Cc1cc2nc3c(=O)[nH]c(=O)nc-3n(C[C@H](O)[C@H](O)[C@H](O)COP(=O)(O)OP(=O)(O)OC[C@H]3O[C@@H](n4cnc5c(N)ncnc54)[C@H](O)[C@@H]3O)c2cc1C	-2%
COC(=O)C1=CO[C@@H](O[C@@H]2O[C@H](CO)[C@@H](O)[C@H](O)[C@H]2O)[C@@H]2C(CO)=C[C@H](O)[C@H]12	-24%
C[C@]12CC[C@H](O)CC1=CC[C@@H]1[C@@H]2CC[C@]2(C)C(c3cccnc3)=CC[C@@H]12	-8%
O=C1C[C@@H](c2ccccc2)Oc2cc(O[C@@H]3O[C@H](CO)[C@@H](O)[C@H](O)[C@H]3O)cc(O)c21	2%
CC1(C)CC[C@]2(C(=O)O)CC[C@]3(C)C(=CC[C@@H]4[C@@]5(C)C[C@H](O)[C@H](O)[C@@](C)(CO)[C@@H]5CC[C@]43C)[C@@H]2C1	15%
Oc1ccc([C@H]2Oc3cc(O)cc(O)c3C[C@H]2O)cc1	-43%
O=C(Oc1ccccc1C(=O)O)c1ccccc1O	-8%
CC1(C)CC[C@]2(C(=O)O)CC[C@]3(C)C(=CC[C@@H]4[C@@]5(C)CC[C@H](O)C(C)(C)[C@@H]5CC[C@]43C)[C@@H]2C1	13%
O=c1ccc2cc(O)c(O[C@@H]3O[C@H](CO)[C@@H](O)[C@H](O)[C@H]3O)cc2o1	32%
COC(=O)Cc1c[nH]c2ccccc12	15%
Clc1ccccc1C(c1ccccc1)(c1ccccc1)n1ccnc1	-13%
O=c1c2cc(O[C@@H]3O[C@H](CO)[C@@H](O)[C@H](O)[C@H]3O)c(O)cc2oc2cc(O)c([C@@H]3O[C@H](CO)[C@@H](O)[C@H](O)[C@H]3O)c(O)c12	-2%
O=c1cc(-c2ccc(O)cc2)oc2cc(O[C@@H]3O[C@H](CO)[C@@H](O)[C@H](O)[C@H]3O)cc(O)c12	24%
CC(=O)Oc1ccc(C(c2ccc(OC(C)=O)cc2)c2ccccn2)cc1	-15%
CC(C)(S)[C@@H](N)C(=O)O	15%
O=C(O)C(CO)c1ccccc1 (stereo not shown)	3%

Set 2 — effect on: kinase activity; action: inhibitor; tested at: 1 µM
Structure (SMILES): CC(C)S(=O)(=O)c1ccc2nccc(Nc3ccc4sc(C5CCCC5)nc4c3)c2c1.Cl
target	remaining activity
EPHB4 (Homo sapiens, UniProt P54760)	110%
TNIK (Homo sapiens, UniProt Q9UKE5)	80%
EPHA4 (Homo sapiens, UniProt P54764)	111%
TLK1 (Homo sapiens, UniProt Q9UKI8)	91%
MARK2 (Homo sapiens, UniProt Q7KZI7)	95%
EIF2AK3 (Homo sapiens, UniProt Q9NZJ5)	103%
EPHB1 (Homo sapiens, UniProt P54762)	96%
CDK14 (Homo sapiens, UniProt O94921)	107%
CDK18 (Homo sapiens, UniProt Q07002)	102%
MAPK9 (Homo sapiens, UniProt P45984)	89%
PDPK1 (Homo sapiens, UniProt O15530)	114%

Set 3 — matrix: 1,9-decadiene/PBS; pH: 7.4
SMILES	logD
CC(C)C[C@@H]1NC(=O)[C@H](C)NC(=O)[C@H](Cc2cscn2)NC(=O)[C@H](CC(C)C)NC(=O)[C@@H](CCC(=O)N2CCCC2)NC(=O)[C@H](CC(C)C)NC(=O)[C@@H](CC(C)C)NC1=O	-1.3
CC(C)C[C@@H]1NC(=O)[C@@H](C)NC(=O)[C@H](CCC(=O)N2CCCC2)NC(=O)[C@@H](C(C)C)NC(=O)[C@H](C)NC(=O)[C@H](CC(C)C)NC(=O)[C@@H](CC(C)C)NC1=O	-2.6
CC(C)C[C@@H]1NC(=O)[C@H](CC(C)C)NC(=O)[C@H](CC(C)C)NC(=O)[C@H](C(C)C)NC(=O)[C@H](C(C)C)NC(=O)[C@H](C)NC(=O)[C@H](C)NC1=O	-0.661
CC(C)C[C@@H]1NC(=O)[C@H](Cc2cscn2)NC(=O)[C@H](CCC(=O)N2CCCC2)NC(=O)[C@H](C)NC(=O)[C@@H](Cc2cscn2)NC(=O)[C@H](CC(C)C)NC(=O)[C@@H](CC(C)C)NC1=O	-2.67
CC(C)C[C@@H]1NC(=O)[C@H](CC(C)C)NC(=O)[C@@H](CC(C)C)NC(=O)[C@H](C(C)C)NC(=O)[C@@H](Cc2cscn2)NC(=O)[C@H](C)NC(=O)[C@H](CCC(=O)N2CCCC2)NC1=O	-2.2
CC(C)C[C@@H]1NC(=O)[C@H](C)NC(=O)[C@H](CC(C)C)NC(=O)[C@@H](CC(C)C)NC(=O)[C@H](CC(C)C)NC(=O)[C@@H](C)NC(=O)[C@H](CCC(=O)N2CCCC2)NC1=O	-2
CC(C)C[C@@H]1NC(=O)[C@H](C)NC(=O)[C@H](C(C)C)NC(=O)[C@H](C)NC(=O)[C@H](C)NC(=O)[C@H](CC(C)C)NC(=O)[C@H](CC(C)C)NC1=O	-2.11
CC(C)C[C@@H]1NC(=O)[C@H](CC(C)C)NC(=O)[C@@H](CC(C)C)NC(=O)[C@@H](CC(C)C)NC(=O)[C@H](C(C)C)NC(=O)[C@H](CC(C)C)NC(=O)[C@@H](CC(C)C)NC1=O	2.98
CC(C)C[C@@H]1NC(=O)[C@H](C)NC(=O)[C@H](CCC(=O)N2CCCC2)NC(=O)[C@H](CC(C)C)NC(=O)[C@H](C(C)C)NC(=O)[C@H](CC(C)C)NC(=O)[C@@H](CC(C)C)NC1=O	-0.934
CC(C)C[C@@H]1NC(=O)[C@H](C(C)C)NC(=O)[C@H](C)NC(=O)[C@@H](CC(C)C)NC(=O)[C@H](C(C)C)NC(=O)[C@H](CC(C)C)NC(=O)[C@@H](CC(C)C)NC1=O	0.585

Set 4 — effect on: binding; method: radioligand binding; tested at: 10 µM
Target: 5-hydroxytryptamine receptor 6 (HTR6, Homo sapiens, UniProt P50406)
Sequence of UniProt P50406 (whole entry, looked up): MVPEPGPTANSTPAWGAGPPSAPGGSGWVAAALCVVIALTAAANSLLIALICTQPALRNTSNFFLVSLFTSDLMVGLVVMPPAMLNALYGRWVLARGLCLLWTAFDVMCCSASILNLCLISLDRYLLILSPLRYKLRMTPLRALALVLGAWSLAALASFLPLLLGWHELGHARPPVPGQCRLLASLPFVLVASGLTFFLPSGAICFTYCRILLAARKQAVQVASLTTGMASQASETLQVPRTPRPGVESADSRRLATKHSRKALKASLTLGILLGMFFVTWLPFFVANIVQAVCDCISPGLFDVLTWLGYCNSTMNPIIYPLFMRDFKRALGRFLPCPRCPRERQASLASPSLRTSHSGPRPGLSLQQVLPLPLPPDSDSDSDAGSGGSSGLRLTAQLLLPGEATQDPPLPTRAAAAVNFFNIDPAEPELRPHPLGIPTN
SMILES	inhibition
CN(C)C(=O)Cn1cc(-c2nc([C@@](C)(c3ccc(-c4cnc(N)nc4)cc3)C3CC3)no2)cn1	-10.1%
Cc1nc(C2CCN(C(=O)c3ccc(OC(F)(F)F)cc3N)CC2)c2ncc(N3CCN(C)CC3)cc2n1	-1.38%
CC1=C(C#N)[C@@H](c2ccc3[nH]nc(C)c3c2)C(C#N)=C(c2ccc(Cl)cc2)N1	55.7%
O=C(Nc1cccnn1)N1CC(CC=Cc2cncc(Oc3ccc(C(F)(F)F)cn3)n2)C1	7.76%
C[C@@H]1CN(c2cc(-c3nn(C)c4ccc(OC5(C)CC5)cc34)ncn2)C[C@H](C)O1	-11.3%
O[C@]1(C(F)(F)F)CCCC[C@H]1Nc1ccc(F)cc1	-26.4%
CS(=O)(=O)NCC[C@H](NC(=O)c1cncc2c1cnn2-c1ccc(F)cc1)c1ccnc(S(C)(=O)=O)c1	-4.31%
CNC(=O)c1ccc(Nc2ncc(C(F)(F)F)c(NCc3nccnc3N(C)S(C)(=O)=O)n2)cc1	-8.99%
Cc1nc(N2CC[C@@H](O)C2)ncc1-c1cc(C(F)(F)F)cc2[nH]ncc12	-10.3%
Cc1c(N2CCCC2)nc2ccc(Br)cc2c1C(=O)NC[C@H](CCC(=O)O)c1ccccc1Cl	6.59%
CCOCCn1cc(C(=O)Nc2ccc(-n3nc(-c4cccnc4)cc3C(F)(F)F)cn2)ccc1=O	0.656%
O=C(Nc1cnc(Oc2ccc(F)cc2)nc1)N1CCc2ncccc2[C@@H]1c1ccc(F)cc1	-3.59%
CC(C)CC(=O)N1CCc2nc(-c3ccc(Br)cc3)nc(N(C)Cc3ccccc3)c2C1	0.81%
CC(=O)N1CCC(c2ccc(C(=O)NC(=N)N)cc2C(F)(F)F)CC1	1.25%
CN1CCN(C(=O)C(C)(C)c2ccc(C(=O)Nc3cn4cc(-c5ccncc5)ccc4n3)cc2)CC1	-15.7%
CC1=C(C#N)C(c2ccc3c(c2)c(NC(=O)c2ccccc2C)nn3C)C(C#N)=C(C)N1	2.21%
Cc1c[nH]c2nccc(Oc3c(F)cc(Nc4cc(Cl)nc(N)n4)cc3F)c12	-1.5%
O=C(Nc1ccc(-n2nc(-c3cccnc3)cc2C(F)(F)F)cn1)c1ccc(-c2ccccc2)c(F)c1	-16%
CNC(=O)Nc1ccc2c(c1)[C@]1(CC2)OC(=O)N(CC(=O)N(Cc2ccc(F)cc2)[C@@H](C)C(F)(F)F)C1=O	24.1%
O=C([C@H]1C[C@H](O)CN1c1ccc(Cl)cc1)N1CC2COCC(C1)N2Cc1ccc(Cl)cc1	5.38%

A few entries again (set 2):
target	remaining activity
TNIK (Homo sapiens, UniProt Q9UKE5)	80%
CDK14 (Homo sapiens, UniProt O94921)	107%
EIF2AK3 (Homo sapiens, UniProt Q9NZJ5)	103%
EPHB4 (Homo sapiens, UniProt P54760)	110%
